# Experimental data collected from several papers.
# Numbered parts are unrelated; each lists some results of a single study. Substitutions count along the parent as printed.

# Study 1
# Target: Prothrombin, mature alpha-thrombin (F2, Homo sapiens, UniProt P00734)
# Technique: aptamer microarray, sandwich
# Molecule type: DNA with 2'F-ANA
# Medium: in vitro
# Tested at: 200 nM
# Setting: whole 15-mer aptamer, many near background
# Added: Cy3 exosite-II aptamer, 400 nM
# Direction: higher = stronger binding
# Oligonucleotide: GGTTGGTGTGGTTGG
Modification,mean fluorescence intensity
2'F-ANA at 1 4 5 6 9 15,56.2 a.u.
2'F-ANA at 2 7 9 10 11 13 14,90.8 a.u.
2'F-ANA at 2 3 4 5 6 7 8 9 14,72.2 a.u.
2'F-ANA at 2 3 4 5 7 10 12 13 14,44.7 a.u.
2'F-ANA at 2 6 7 8 10 12 15,277 a.u.
2'F-ANA at 2 5 7 8 10 11 12 13,93.9 a.u.
2'F-ANA at 3 4 5 7 10 11 14 15,58.8 a.u.
2'F-ANA at 5 7 11,68.2 a.u.
2'F-ANA at 1 2 5 7 8 10 11 12 13,47.8 a.u.
2'F-ANA at 3 5 7 11 14,60.3 a.u.
2'F-ANA at 1 2 3 7 10 12 15,99 a.u.
2'F-ANA at 1 3 5 7 8 9 10 11 12,49.4 a.u.
2'F-ANA at 1 2 3 4 6 7 9 10 12 13,66 a.u.
2'F-ANA at 1 3 6 9 10 11 14 15,59 a.u.
2'F-ANA at 1 3 4 11 13,152 a.u.
2'F-ANA at 2 3 5 8 12 13 14 15,77.7 a.u.

# Study 2
# Target: Histone acetyltransferase KAT6A, both winged helices, GST fusion (KAT6A, Homo sapiens, UniProt Q92794, residues 1-181)
# Technique: protein binding microarray
# Molecule type: double-stranded DNA, one strand shown
# Medium: in vitro
# Tested at: not given
# Setting: 8-mer, flanks averaged, mean of 2 arrays, mostly near background
# Relative to: not given
# Direction: higher = stronger binding
# Residues (chain): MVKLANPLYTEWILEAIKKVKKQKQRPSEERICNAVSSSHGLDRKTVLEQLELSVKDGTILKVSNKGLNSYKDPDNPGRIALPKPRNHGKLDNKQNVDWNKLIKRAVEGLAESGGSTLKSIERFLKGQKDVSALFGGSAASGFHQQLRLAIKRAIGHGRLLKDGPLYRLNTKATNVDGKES
Oligonucleotide,E-score
TCAACTAA,-0.187
GGGCGTAC,0.164
GGACACAC,0.0309
AGGCTGCG,-0.0353
AACAGATA,-0.133
CATGGAGC,-0.0492
CTAGGGAC,0.0127
CCTCCAGG,-0.131
ATACGAGA,-0.166
AGCACACC,-0.111
AGGTGGTA,-0.0762
TAGTTACA,-0.0555
GACGGCTA,0.286
AGGGGCTG,-0.16
CTGGAGAA,-0.145
ATGCGAGA,-0.0401
TCACGAGA,-0.222
AGCGCAGG,0.229
TCTAAGCA,-0.0372
ACGTCCTA,-0.0479
GGCAATAA,-0.073
AAATGAGA,-0.0793
GATATGTA,0.0318
CCTTTTAG,-0.0464
ACATTCTG,-0.0881

# Study 3
# Target: CCNB3, cyclin fold, Cln2 fusion (human)
# Technique: yeast growth competition, sequencing
# Medium: yeast
# Setting: strong parent motif
# Relative to: not given
# Direction: higher = stronger binding
# Starting sequence: RBL2 docking peptide (human); STTRRRLFVENDS; partner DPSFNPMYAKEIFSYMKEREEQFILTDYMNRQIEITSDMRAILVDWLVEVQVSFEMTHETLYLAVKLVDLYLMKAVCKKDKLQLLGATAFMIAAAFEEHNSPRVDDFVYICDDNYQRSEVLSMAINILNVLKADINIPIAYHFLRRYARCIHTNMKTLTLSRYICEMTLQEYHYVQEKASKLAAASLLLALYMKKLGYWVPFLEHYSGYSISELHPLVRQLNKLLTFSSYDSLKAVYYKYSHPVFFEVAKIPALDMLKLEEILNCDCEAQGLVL
Substitution,normalised enrichment score
S13A,1.03
N11P,1.01
N11L,0.63
V9I,0.783
R6T,1.83
R6G,0.0849
E10D,1.73
R5D,-0.208
F8W,0.0993
L7H,0.0131
V9P,0.756
T2G,1.24
R4Y,0.683
R5A,-0.192
D12E,0.386
D12S,0.515
R5M,0.239
R6W,0.176
T2F,0.648
T3Q,0.0764
R6F,0.854
S1K,0.607
V9Y,0.969

# Study 4
# Target: PABPC1L2, full length, GST fusion (mouse, UniProt A0ABA7IW68)
# Technique: RNAcompete
# Molecule type: RNA
# Medium: in vitro
# Tested at: 20 nM
# Setting: 7-mer, probes averaged, single round
# Relative to: mean of 7-mers
# Direction: higher = stronger binding
# Construct (chain): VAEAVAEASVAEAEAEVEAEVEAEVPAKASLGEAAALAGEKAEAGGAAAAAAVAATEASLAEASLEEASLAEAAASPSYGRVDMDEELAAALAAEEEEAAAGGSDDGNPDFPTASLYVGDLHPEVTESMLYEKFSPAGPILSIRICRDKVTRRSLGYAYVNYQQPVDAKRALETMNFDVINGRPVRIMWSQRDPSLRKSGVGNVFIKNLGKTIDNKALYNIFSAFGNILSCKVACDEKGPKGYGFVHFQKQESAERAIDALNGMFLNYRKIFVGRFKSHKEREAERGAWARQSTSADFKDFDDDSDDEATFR
Oligonucleotide,7-mer Z-score
UUGAUAU,-0.0772
GGCCGCC,-0.36
ACUAUAC,-0.188
GGGUAUG,0.0243
CGGCACG,0.0678
AAGCAUU,0.0297
UUCAUUC,-0.394
UAUCCAC,-0.345
UCCUGUA,-0.277
CUUGGGC,-0.0754
CAGUCCG,-0.275
GAGAUCU,-0.162
GCAAUUC,-0.171
UAGUAGA,0.00798
ACUGGGU,-0.0138
UUACUGG,0.0334
UUGUGCU,-0.228
ACAUCCC,-0.277
CCAUGGG,-0.148
CCUAGUG,-0.24
GAUCGGC,-0.0754
GGCGCUA,0.111
CCCCAAG,-0.28

# Study 5
# Target: ABI1, truncated, D143A, DHFR fusion (Arabidopsis thaliana)
# Technique: DHFR PCA, deep sequencing
# Medium: yeast
# Setting: methotrexate growth selection, single substitutions
# Added: (+)-ABA 0 µM
# Relative to: wild-type fitted maximum
# Direction: higher = stronger binding
# Starting sequence: PYL1, truncated, DHFR fusion (Arabidopsis thaliana); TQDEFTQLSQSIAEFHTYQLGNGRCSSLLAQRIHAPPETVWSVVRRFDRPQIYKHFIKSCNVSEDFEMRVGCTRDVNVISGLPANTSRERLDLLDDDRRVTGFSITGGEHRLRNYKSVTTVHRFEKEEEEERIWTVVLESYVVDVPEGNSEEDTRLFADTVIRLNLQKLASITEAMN; partner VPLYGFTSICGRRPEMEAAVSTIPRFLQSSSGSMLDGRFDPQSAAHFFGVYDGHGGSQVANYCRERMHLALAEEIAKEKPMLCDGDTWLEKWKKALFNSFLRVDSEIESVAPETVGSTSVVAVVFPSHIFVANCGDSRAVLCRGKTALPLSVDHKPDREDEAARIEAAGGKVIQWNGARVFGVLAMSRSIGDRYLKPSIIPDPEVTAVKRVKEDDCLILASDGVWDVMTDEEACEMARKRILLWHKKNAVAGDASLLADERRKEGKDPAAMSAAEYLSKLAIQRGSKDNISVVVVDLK
Substitution,relative binding score [%]
V62S,-2.68
I133W,12.6
V137H,6.78
D97S,16.6
L169S,-2.88
L93Q,0.153
L82D,10.4
L138G,3.32
E38P,5.85
V118W,2.54
A158Q,17.8
E174Y,-5.44
S140V,3.42

# Study 6
# Target: Interferon regulatory factor 7, full length, phosphomimetic (IRF7, Homo sapiens, UniProt Q92985, residues 1-503, S471D/S472D/S475D/S476D/S477D/S483D/S484D/S487D)
# UniProt Q92985, sequence (whole entry, unmodified, looked up): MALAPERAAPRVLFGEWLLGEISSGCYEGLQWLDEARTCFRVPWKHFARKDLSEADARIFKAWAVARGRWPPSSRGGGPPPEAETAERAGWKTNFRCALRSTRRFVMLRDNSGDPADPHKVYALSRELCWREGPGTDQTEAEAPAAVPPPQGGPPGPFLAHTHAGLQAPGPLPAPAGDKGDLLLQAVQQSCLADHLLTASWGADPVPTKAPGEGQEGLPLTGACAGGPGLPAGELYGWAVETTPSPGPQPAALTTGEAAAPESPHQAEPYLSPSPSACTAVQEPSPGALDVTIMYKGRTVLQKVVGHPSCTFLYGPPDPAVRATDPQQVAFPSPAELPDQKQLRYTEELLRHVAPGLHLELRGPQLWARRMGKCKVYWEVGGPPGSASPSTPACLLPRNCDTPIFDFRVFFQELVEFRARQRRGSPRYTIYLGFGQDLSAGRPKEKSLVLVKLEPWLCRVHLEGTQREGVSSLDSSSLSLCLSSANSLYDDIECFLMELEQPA
# Technique: protein-binding microarray
# Molecule type: double-stranded DNA, one strand shown
# Medium: in vitro
# Tested at: 2200 nM top
# Setting: 60-bp whole probe
# Added: salmon DNA 0.4 mg/ml
# Relative to: random background probes
# Direction: higher = stronger binding
# All sequences stand within: GCCTAGCAC … GTCTTGATTCGCTTGACGCTGCTG
Oligonucleotide,fitted relative affinity [z-score]
GACGGTTTAGACACTGGGGACGTGCTA,0.139
TTGGTTTTCTCTATTGCTTTGTGCTAG,2.18
TTGGATCTCAGACTGGATTAGTGCTAG,0.225
TTAGAATTGAGTATCGATTAGTGCTAG,-0.455
TTAGGTTTCGACTATCGGATAGTGCTA,3.16
GACGGACTGGAATTTCGGGACGTGCTA,0.415
GACGGTATCGGGTTTCGGCACGTGCTA,0.661
TCAGATTTCAGTCTCGATTAGTGCTAG,1.18
CCCTGTTTCCATCTCTCAAAGTGCTAG,4.13
GACGGTCTCGGTATCGGCACGTGCTAG,0.266
GACGGTATCCGTCTCGGGACGTGCTAG,-0.136
TCATGCTTGCGTCTGGGACTGTGCTAG,0.482
TCATCTCCAGGGTTTCTCACTGTGCTA,1.03
TTAGTTTTCGGTTCCGGTTAGTGCTAG,11.3
GACGGTATCGGTATCGGGATGTGCTAG,0.518
GACGGTATCCTACTGATGACGTGCTAG,0.414

# Study 7
# Molecule: PhoQ, residues 284 288 289 292 302 303 SACGEM
# Technique: Sort-seq
# Measured: YFP reporter
# Medium: E. coli
# Setting: PhoQ-PhoP variant library
# Added: 10 µM Mg2+
# Relative to: high Mg2+ state
# Direction: higher = stronger signaling
target,fold induction
"PhoP, residues 12 14 15 18 19 HHYTI (Escherichia coli, UniProt P23836)",3.71
"PhoP, residues 12 14 15 18 19 AYFRS (Escherichia coli, UniProt P23836)",16
"PhoP, residues 12 14 15 18 19 SFCSL (Escherichia coli, UniProt P23836)",18.2

# A few entries again (study 5):
Substitution,relative binding score [%]
L138G,3.32
V137H,6.78
L93Q,0.153
V118W,2.54
D97S,16.6
V62S,-2.68
E38P,5.85
L82D,10.4
S140V,3.42
L169S,-2.88
A158Q,17.8
